Published values gathered from unrelated publications.
Parts stem from different laboratories: compare values within a part only.

Set 1 — technique: RNA Bind-n-Seq; form: RNA; medium: in vitro; tested at: 365 nM; baseline: no-protein control; reading: higher = stronger binding
Target: RNA binding protein fox-1 homolog 2, RRM domain, GST-SBP tag (RBFOX2, Homo sapiens, UniProt O43251-10, residues 100-194)
Setting: natural RNA segment, single round, ends assumed
For `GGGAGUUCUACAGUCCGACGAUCGAAAGGCUGUGUAGUAGAACCAGAGGCGCCUUCUUGCUCUUGUUUUAUGAUCAGGGUGGAAUGUGCCUCCUGAUGUAUGAGCCUCAUUAAUUUCCAUUUUAAGGUGGUGUUGGAAUUCUCGGGUGCCAA`, “RBNS enrichment (R)” read 0.534.
`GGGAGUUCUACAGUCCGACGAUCUAAUAUAUUAUCCUUCCUUGGUUCUAGAAGAAUAGAUAAAUAUAUUUUUUUAGGCUAUAGAAUGAUAUUACAGGUCCCAUGUUGGCUGGAUGGUUGCGUGAGUUUUCGUGUGGAAUUCUCGGGUGCCAA`: “RBNS enrichment (R)” 0.784.
Under “RBNS enrichment (R)”, `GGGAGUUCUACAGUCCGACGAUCGUUUUUUUCUUUGUACCUGAUGUGAAUUCUAGCAACCUUUGUUAGGAAAAAGCACAGCCUCGAAUGGAGGCAGCCUAAACUCUUGUCUGUCCUCUUCAUGGUGUCUCUUCUGGAAUUCUCGGGUGCCAA` is recorded as 0.557.
Under “RBNS enrichment (R)”, `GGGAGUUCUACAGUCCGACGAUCAAUAACUUACAAGUGAAAUUAAGAAAACAUAAGAUUUAGUCUUACAGUUUCUAAAUAUAUGAUUUGUUGUUGAGAGAAAACAGUGAUUGUUAAUUAUGGCUUUUACUUCAUGGAAUUCUCGGGUGCCAA` is recorded as 0.418.
`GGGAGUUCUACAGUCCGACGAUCCAAUAUUUGAUUUUUUAAAAAUAUACACAUAGGUGCUGCAUUUAUAUCUGCUGGUUUAAAUUCUGUCAUAUUUCACUUCUAGCCUUUUAGUAUGGCAAAUCAUAUUUUACUGGAAUUCUCGGGUGCCAA` — result for “RBNS enrichment (R)”: 1.19.
For `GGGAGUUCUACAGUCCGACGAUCAAACCAGAAAAAAAAAAUCAGAAAAGUGUUCUCAGGUUCACCUUACGUCCUGCCUACAACUCCCGAGUGGCUUUUGGUAGUAACUACCCUGUGUACCCAUUAACAAAGCCUGGAAUUCUCGGGUGCCAA`, “RBNS enrichment (R)” read 0.529.
For `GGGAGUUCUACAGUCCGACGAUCCUUUGGCUUUGGGAAGGAAGAGAUGACCGUAAUCUUGCAACAAGAGUGCCCAACCAGGGACCACUGUCAUCAUAGUGGCUCUCAAUGUGCAUGUCACACCCCCCCUCAGUUGGAAUUCUCGGGUGCCAA`, “RBNS enrichment (R)” read 0.712.
For `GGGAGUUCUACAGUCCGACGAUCUAACACUUGAUUUGCCUUCUAUAACCUAUUUAUUUCAAGUGUUCAUAUUUGAAUUUCUUUGGGAAGAAAGUAAAUCUGAUGGCUCACUGAUUUUUGAAAAGCCUGAAUAAUGGAAUUCUCGGGUGCCAA`, “RBNS enrichment (R)” read 0.488.
`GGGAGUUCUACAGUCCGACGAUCAUUAACUAGAACAGAAUGCUUACAAAGUUUACGUUAAUGUUAUAUAUUAUGUAUAAAUAAAUAUAUUCAUAAUGAGUAUAUGUAAUGGAUAGCACAACGUUUGGAGACGUUGGAAUUCUCGGGUGCCAA` — result for “RBNS enrichment (R)”: 7.97.

Set 2 — technique: protein binding microarray; form: double-stranded DNA, one strand shown; medium: in vitro; tested at: not given; baseline: not given; reading: higher = stronger binding
Target: Histone acetyltransferase KAT6A, both winged helices, GST fusion (KAT6A, Homo sapiens, UniProt Q92794, residues 1-181)
Setting: 8-mer, flanks averaged, mean of 2 arrays, mostly near background
Construct (chain): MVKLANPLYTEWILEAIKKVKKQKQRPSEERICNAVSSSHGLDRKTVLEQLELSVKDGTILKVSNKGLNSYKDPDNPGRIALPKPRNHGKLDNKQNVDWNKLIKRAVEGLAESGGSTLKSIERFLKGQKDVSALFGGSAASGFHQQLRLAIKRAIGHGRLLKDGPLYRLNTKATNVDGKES
With `AAGGAGTA` the E-score was -0.146.
With `CGTTGTAG` the E-score was 0.0495.
`AAGTTTCA` has an E-score of 0.0618.
`GCCTTGAC` gave an E-score of -0.0068.
For `GGAAGCTA`, the E-score was -0.00284.
For `ACGCAACA`, the E-score was 0.0638.
The E-score of `ACTTCTAG` is reported as -0.0461.
For `CCATAATC`, the E-score was -0.184.
For `ACTATACT`, the E-score was 3.5e-05.
With `ACGCTCGA` the E-score was 0.117.
`AGAAGCCT` has an E-score of -0.132.
With `GGAGGCCA` the E-score was -0.218.
`GTTAGAAC` gave an E-score of 0.00848.
With `CGCTCGAC` the E-score was 0.111.
`AAGTGAAC` has an E-score of -0.211.
The E-score of `ACGGCCAG` is reported as 0.112.
For `CACCCCAA`, the E-score was -0.259.
For `GGCCTGAC`, the E-score was -0.0408.
For `ATGCAGTG`, the E-score was -0.161.
With `GCCGAAAA` the E-score was 0.194.

Set 3 — technique: RNA Bind-n-Seq; form: RNA; medium: in vitro; tested at: not given; baseline: input RNA pool; reading: higher = stronger binding
Target: RING finger protein unkempt homolog, zinc fingers 1-6, GST-SBP tag (UNK, Homo sapiens, UniProt Q9C0B0, residues 30-357)
Setting: RNA with constant flanks, human and mouse sites, ends assumed
Residues (chain): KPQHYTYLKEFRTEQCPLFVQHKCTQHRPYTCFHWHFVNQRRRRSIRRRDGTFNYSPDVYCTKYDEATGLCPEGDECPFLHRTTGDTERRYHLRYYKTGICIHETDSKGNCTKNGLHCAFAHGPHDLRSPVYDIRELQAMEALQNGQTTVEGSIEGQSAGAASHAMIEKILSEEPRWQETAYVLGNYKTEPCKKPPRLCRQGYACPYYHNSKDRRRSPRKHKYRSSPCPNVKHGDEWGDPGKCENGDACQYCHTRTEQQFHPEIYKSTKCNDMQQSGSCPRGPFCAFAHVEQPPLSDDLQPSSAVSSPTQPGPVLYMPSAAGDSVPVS
For `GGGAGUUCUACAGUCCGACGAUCAAAACACUUUUUUAUAAUAUUUUCUCACUGAGACUCCCAGGGCUUUUACUAUCUCCAGAAUGUAUUUUUCCUUUUUCCGUAAGACUCAAAAGUAAUAUAAGGUCUACAAAAUCUACUAAACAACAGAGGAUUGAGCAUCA`, the bound/input enrichment was 0.455 ratio.
With `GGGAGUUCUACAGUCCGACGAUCCCAGACUCUACAACUGGAUUUCCUGAUGAAGAUCUUGCCCAAUUACCACCACCUGAAGAAGACGAUGAAAGGCAGCUCAACCCCAGUUAAGAACUGAGAAGAUGUCAGUGGUGCUCGGUUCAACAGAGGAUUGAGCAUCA` the bound/input enrichment was 0.412 ratio.
The bound/input enrichment of `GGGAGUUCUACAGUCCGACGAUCGCAACUUGGAAAGACUAUCUUUCAAGCUUCAAUUCUUACCUGACUAAGUCUGCUGAUUUUAUAGAACAAUCUGUUUUUUACUGGGAACAGAUGACAGAUGGGUUUUUCAUUUUUGGUGAACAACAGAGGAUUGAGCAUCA` is reported as 0.247 ratio.
`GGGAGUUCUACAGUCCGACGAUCCAUUCUAGGCCAAGUGAGAGCUCGUCAGUUCCUUGGGAUAUCUCCAGCUCUAAGGAGGACAGUUUAUCCACAGUUGAAGAGGAGUCUGACUGCAAAUCUCCGUCAGCUGAUGACAAAGGGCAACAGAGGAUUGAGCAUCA` has a bound/input enrichment of 0.149 ratio.
`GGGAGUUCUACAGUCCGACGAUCCUAUCACUAUGGCAAAAACAUAAAUAUUAUCUCAUUUCAGUGUGUGGAGUUGUGGUUGUAGUGUUUGCCUGGUACAUCACCCAUGAUGUCAAUUAAAAAAAGUUUUGAUCUUUUAAUGUACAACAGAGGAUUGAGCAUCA` gave a bound/input enrichment of 0.292 ratio.
`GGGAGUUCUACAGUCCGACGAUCGAUGCAAGAAAGAAACUGAUCCUGAGAAUGAAAAGCUUCAGAAAAUAGAAUUCCAAGAUCAACAGCCUUAGAAGGGACCAGGAAAAGAAUCUUUUAAAAUAGAUUUCUAAGAGAUGCCUACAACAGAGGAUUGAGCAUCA` gave a bound/input enrichment of 0.872 ratio.
With `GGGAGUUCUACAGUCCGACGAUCAGUUGUGUAGCCCACAAUGCCCUGGAGUGUGCACGAGCCAUCUACGCCUACGCCCUGCAGGUGUUCCCCAGCAAGAAGAGUGUGUGGCUGCGCGCCGCGUACUUCGAGAAGAACCAUGGCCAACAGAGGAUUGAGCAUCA` the bound/input enrichment was 0.0985 ratio.
The bound/input enrichment of `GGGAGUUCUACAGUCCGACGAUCCAAGCAACUUACACUGGUUUGACAGUGGUCAGUUCCCCGCCCCACAGUCCAGCGUGCCUGCACUCACCCACCCUUCCUUUAAGACUUGGCUGCUGUUUUAAAGUUUGCCCUUCCUUCAAACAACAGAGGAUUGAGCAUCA` is reported as 0.247 ratio.
For `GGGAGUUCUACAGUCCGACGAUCCGAGUAAUGACGUGUGUGGCUGGGACCUUCUUUAUUCUGUGUUAAUGGCUAACCUGUUACACUGGGCUGGGUUGGGUAGGGUGUUCUGGCUUUUUUGUGGGGUUUUUAUUUUUAAAGAAACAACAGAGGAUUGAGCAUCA`, the bound/input enrichment was 1.13 ratio.
`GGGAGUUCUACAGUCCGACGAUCGUUCAGACUUUGUACUCUCAGUCACCAGCCCUAGAAUUAGACAAAUUCCUUGAAGAUGUCAGGAAUGGGAUCUACCCUCUGACAGCCUUUGGGCUACCUCGGCCUCAGCAGCCACAGCAGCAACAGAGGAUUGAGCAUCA` gave a bound/input enrichment of 1.53 ratio.
The bound/input enrichment of `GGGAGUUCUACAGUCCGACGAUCCAGGCCCUCCAGGCCCAGCAGGAGGAGCAGCAACUGCGGUACCUGCAGAGGGAGGGCCAGAGCUCCAGGGCCCUGGAGGAGUUGAAACUAUCUUUGGAGAAGCAGCUUGCUCAAAACAACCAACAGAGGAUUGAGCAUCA` is reported as 0.0777 ratio.

Set 4 — technique: RNA Bind-n-Seq; form: RNA; medium: in vitro; tested at: 200 nM; setting: whole 134-nt RNA, ends assumed; together with: 150 mM KCl; baseline: input library; reading: higher = stronger binding
Target: Fragile X messenger ribonucleoprotein 1, C-terminal low-complexity region (Fmr1, Mus musculus, UniProt P35922)
With `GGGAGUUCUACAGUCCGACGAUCAAGUCCUGUGCUACACAUCGUAUGUACCGAAUCGGGAAAAGGAAAAGGGAAAAGGGAAAGUAUUAUGUUACGCCGUUCGGAUCUGCACUUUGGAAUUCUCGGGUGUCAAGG` the log2 enrichment was -0.473.
The log2 enrichment of `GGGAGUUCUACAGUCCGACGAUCGUCCUGUGCUACACAUCGUAUGUACCGAAUCGGGAAAAAAGGAAAAAAGGAAAAAAGGAAAGUAUUAUGUUACGCCGUUCGGAUCUGCACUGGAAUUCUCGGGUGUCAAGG` is reported as -0.5.
The log2 enrichment of `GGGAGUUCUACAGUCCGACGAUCCCUGUGCUACACAUCGUAUGUACCGAAUCGGGGCCCCCCGGGCCCCCCGGGCCCCCCGGGGAAAGUAUUAUGUUACGCCGUUCGGAUCUGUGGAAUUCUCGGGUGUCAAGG` is reported as -0.947.
With `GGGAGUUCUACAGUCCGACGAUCUGGGAGGUGGAUUUUGUUUAUUUUUUUAGCUCAUUUCCAGGGGUGGGAAUUUUUUAUUAAUAUGUGUCAUGAAUAAAGUUGUUUUUGAAAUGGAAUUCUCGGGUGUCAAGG` the log2 enrichment was 0.254.
For `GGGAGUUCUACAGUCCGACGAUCUACCAUGGUGGAAGUUCCCGUUCUCGUAGCAGUAUUUUCCAUGCAGGAAAAAGCCAAGGACUACAUGAAAACAACAUACCUGACAAUGAAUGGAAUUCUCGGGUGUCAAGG`, the log2 enrichment was 0.891.
`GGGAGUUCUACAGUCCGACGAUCCACAGACAACACCCACCCACACAGACACAGAGGGAAGGGGUUGGGAUGGGGACAGGGUGCACAGCAGGGCGGGGUAGGACCCCAGCCCCUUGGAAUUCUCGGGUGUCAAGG` has a log2 enrichment of 1.48.
With `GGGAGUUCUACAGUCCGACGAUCGUCCUGUGCUACACAUCGUAUGUACCGAAUCAAAUUUUUAAAUUUUUUUAAAUUUAAAAAAGUAUUAUGUUACGCCGUUCGGAUCUGCACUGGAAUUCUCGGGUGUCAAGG` the log2 enrichment was -1.39.
`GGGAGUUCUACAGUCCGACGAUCACCAUGCAGGUGGGCAUCUUUGGGAAGUGGGGCAAGGGGGGGAUAGGGAGGGGGGUAACACUUUGGGAACAGGUGAUCCCAGGUCGUUUCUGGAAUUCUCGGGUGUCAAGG` gave a log2 enrichment of 0.832.
The log2 enrichment of `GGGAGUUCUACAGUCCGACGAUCUCCUGUGCUACACAUCGUAUGUACCGAAUCGGAAAAAAGGAAAAAAGGGGAAAAAAGGGGAAAGUAUUAUGUUACGCCGUUCGGAUCUGCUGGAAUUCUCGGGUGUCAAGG` is reported as -0.641.
For `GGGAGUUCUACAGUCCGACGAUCUCCUGUGCUACACAUCGUAUGUACCGAAUCGGGAAAAAAAGGGAAAGGGUUUUUUUGGGAAAGUAUUAUGUUACGCCGUUCGGAUCUGCAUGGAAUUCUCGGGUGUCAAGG`, the log2 enrichment was -0.216.

Excerpt of the above (set 2):
With `CGTTGTAG` the E-score was 0.0495.
`AAGTTTCA` has an E-score of 0.0618.
`GCCTTGAC` gave an E-score of -0.0068.
For `GGAAGCTA`, the E-score was -0.00284.
For `ACGCAACA`, the E-score was 0.0638.
